Results from different studies.
Each line is one published result; not all experiments were run side by side. Values joined by “and” are separate records of one study, mostly repeats; a detail may differ.
Target: Serine/threonine-protein kinase pim-2 (PIM2, Homo sapiens, UniProt Q9P1W9)

Structure (SMILES)	test	conditions	scale	endpoint	result
COCC12C(=O)NC3C4(C(OC)CC1O)C1CC5(O)C(OC)C(O)C(OC(C)=O)(C1C5OC(=O)c1ccccc1)C3(O)C(OC)C24 (stereo not drawn)	kinase activity, inhibitor, ProQinase kinase profiling	25 µM	baseline: control	remaining activity	72% and 81%
Nc1ncc(-c2cc(-c3cnn(CC(F)(F)F)c3)ncc2F)nc1C(=O)NC1CNCC(F)C1 (stereo not drawn)	enzyme activity	1 µM	baseline: DMSO control	remaining activity	102%
C=C1CCCCCCCCCC(CO)C1=O (stereo not drawn)	cell-free assay, competition with immobilised ligand	10 µM	–	remaining binding	100%
Cc1cccc(O[C@H]2CCC[C@@H](C(C)CNCc3ccncc3)C2)c1 (relative stereo)	enzyme activity, inhibitor	1 µM	–	inhibition	3%
CCn1cc(C(=O)O)c(=O)c2c(N)c(F)c(NC3CCCCC3)cc21	kinase activity	0.1 µM, with: ATP at Km	–	inhibition	15.6%
COc1c(Cl)cccc1Nc1c(-c2ccncc2C#C[C@@]2(C)CCCN2C(=O)/C=C/CN(C)C)[nH]c2c1C(=O)NCC2	binding, competition with immobilised ligand	3 µM	–	remaining binding	100%
O=C(Cc1ccc(OCc2ccccc2)cc1)NC1(C(=O)O)CCN(C(=O)c2ccc(-c3cccc(Cl)c3)cc2)CC1	enzyme activity, inhibitor	10 µM	–	activity vs control	110%
C=CC(=O)N1CCc2ccc(-n3c(=O)ccc4cnc5ccc(-c6cnn(C)c6)cc5c43)cc21	KINOMEscan	1 µM	baseline: DMSO control	remaining binding	100%
CN1CCN(Cc2ccc(NC(=O)c3cccc(C#Cc4cnc(N)c5ncccc45)c3)cc2C(F)(F)F)CC1	cell-free assay, competition with immobilised ligand	0.5 µM	–	remaining binding	100%
Cc1ccc(C)c(-c2ccc3nc(NC(=O)C4CCCCC4)nn3c2)c1	enzyme activity, Dundee kinase panel	10 µM	–	remaining activity	91%
C=CC(=O)Nc1cccc(-c2cnc3[nH]cc(C(=O)NC(C)(C)C)c3n2)c1	kinase activity	0.1 µM	–	inhibition	1% and 0%
Cc1cccc(-c2ccc3nc(NC(=O)C4CCCO4)nn3c2)c1 (stereo not drawn)	enzyme activity, Dundee kinase panel	10 µM	–	remaining activity	103%
COc1ccc(C(=O)/C=C/c2ccccc2-c2c[nH]c3ccc(C#N)cc23)c(O)c1	enzyme activity, inhibitor	20 µM	–	inhibition	24%
COc1ccc(NC(=O)Nc2ccc3c(c2)C(=O)N(C(C)CO)CC(C)C(CN(C)Cc2ccc4c(c2)OCO4)O3)cc1 (stereo not drawn)	kinase activity, KinaseProfiler	0.03 µM, species human	baseline: control	remaining activity	102%
COc1cc(Nc2nccc(-c3cnn4nc(OC)ccc34)n2)cc(C(F)(F)F)c1	binding, competition with immobilised ligand	1 µM	–	remaining binding	91%
Cc1cnc2nc1Nc1cccc(c1)COC/C=C/COCc1cc(ccc1OCCN1CCOCC1)N2	binding	0.1 µM	–	remaining binding	87%
O=C=[N][Ru-4]123([n]4c5ccc(O)cc5c5c6c(c7cc(F)c[n+]1c7c54)C(=O)NC6=O)[S+]1CC[S+]2CC[S+]3CC1 (stereo not drawn)	enzyme activity	100 nM, human enzyme, with: 10 µM ATP	baseline: untreated	remaining activity	24%
CC(=O)N1c2ccc(-c3ccc(CNC(=O)c4cn5cc(-c6cnc(N)nc6)nc(N6CCOCC6)c5n4)cc3)cc2CC[C@@H]1C	KINOMEscan	10 µM	–	remaining binding	87%
NC(=O)[C@@H](O)C[C@H]1CCc2sc3ncnc(O[C@H]4CC[C@H](N5CCOCC5)CC4)c3c21	enzyme activity, inhibitor	10 µM	–	inhibition	0%
CNC(=O)C1CCN(c2cc(C)c(F)cc2NC(=O)c2ccc(-c3cc(O)ccc3C)c(C)c2)CC1	binding, competition with immobilised ligand	1 µM	–	remaining binding	95%
CN1CC[C@@H](COc2cnc(C#N)cc2-c2ccn3nc(NC(=O)C4CC4)cc3c2)C1	enzyme activity, inhibitor	1 µM	–	inhibition	-2%

For quick reference, copied from above:
Structure (SMILES)	test	conditions	scale	endpoint	result
C=C1CCCCCCCCCC(CO)C1=O (stereo not drawn)	cell-free assay, competition with immobilised ligand	10 µM	–	remaining binding	100%
Cc1cccc(O[C@H]2CCC[C@@H](C(C)CNCc3ccncc3)C2)c1 (relative stereo)	enzyme activity, inhibitor	1 µM	–	inhibition	3%
